Measurements from different studies.
A part holds a random share of what one study measured. Substitutions count along the parent as printed.

Study 1
Target: Sal-like protein 4, full length isoform A (SALL4, Homo sapiens, UniProt Q9UJQ4, residues 1-1053)
Chain of UniProt Q9UJQ4 (whole entry, looked up): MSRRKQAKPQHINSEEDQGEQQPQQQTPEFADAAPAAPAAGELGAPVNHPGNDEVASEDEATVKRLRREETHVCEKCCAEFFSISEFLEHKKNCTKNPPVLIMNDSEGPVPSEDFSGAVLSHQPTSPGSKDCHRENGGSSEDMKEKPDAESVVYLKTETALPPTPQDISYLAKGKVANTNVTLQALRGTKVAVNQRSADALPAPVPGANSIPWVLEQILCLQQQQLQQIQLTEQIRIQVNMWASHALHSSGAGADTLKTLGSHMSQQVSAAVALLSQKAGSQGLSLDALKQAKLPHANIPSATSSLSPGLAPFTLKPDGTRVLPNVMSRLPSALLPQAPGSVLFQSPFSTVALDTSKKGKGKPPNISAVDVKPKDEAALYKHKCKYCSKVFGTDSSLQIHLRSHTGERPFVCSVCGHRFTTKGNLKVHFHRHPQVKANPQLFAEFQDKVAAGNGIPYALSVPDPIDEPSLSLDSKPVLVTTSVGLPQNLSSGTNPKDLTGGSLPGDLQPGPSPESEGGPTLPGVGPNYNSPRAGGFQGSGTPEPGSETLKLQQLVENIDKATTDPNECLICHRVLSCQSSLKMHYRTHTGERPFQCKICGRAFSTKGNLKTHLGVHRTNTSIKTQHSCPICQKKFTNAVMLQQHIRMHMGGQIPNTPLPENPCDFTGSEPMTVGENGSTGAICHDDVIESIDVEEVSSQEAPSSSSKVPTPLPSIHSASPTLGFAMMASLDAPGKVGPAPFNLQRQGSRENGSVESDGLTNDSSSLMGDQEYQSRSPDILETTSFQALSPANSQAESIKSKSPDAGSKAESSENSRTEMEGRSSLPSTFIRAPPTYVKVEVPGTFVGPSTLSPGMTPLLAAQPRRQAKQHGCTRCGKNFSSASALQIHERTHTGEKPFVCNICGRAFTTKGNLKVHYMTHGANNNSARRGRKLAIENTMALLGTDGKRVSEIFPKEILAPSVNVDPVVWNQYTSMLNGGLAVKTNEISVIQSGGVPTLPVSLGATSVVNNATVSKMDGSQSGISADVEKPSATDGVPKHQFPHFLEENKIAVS
Method: universal PBM
Form: double-stranded DNA, one strand shown
Matrix: in vitro
Tested at: 600 nM
Setting: 8-mer, flanks averaged, mean of replicates
Reading: higher = stronger binding
Measurement: E-score
CGCGCTTC: -0.212
AAAGTAAC: 0.17
TCCACTAA: 2e-05
CAGACCGG: -0.324
GAAGGGTA: -0.00817
TCCTGGCA: -0.0636
TAAAGTAA: 0.295
CAGTCGCG: -0.372
CGTGCGGC: -0.263
AATCCACG: 0.0205
GATAGGCA: 0.15
ATGTGCAG: 0.0827
ACCAGGGG: -0.234
CAGACGTA: 0.0278
ACGGGCTC: -0.33
CTGAAGAC: -0.147
ACACTACA: 0.193
GAAGCGTC: -0.0703

Study 2
Target: Interferon regulatory factor 3, full length, phosphomimetic (IRF3, Homo sapiens, UniProt Q14653, residues 1-427, S386D/S396D/S398D/S402D/T404D/S405D)
Method: protein-binding microarray
Form: double-stranded DNA, one strand shown
Matrix: in vitro
Tested at: 2540 nM top
Setting: 60-bp whole probe
With: salmon DNA 0.4 mg/ml
Baseline: random background probes
Reading: higher = stronger binding
Measurement: fitted relative affinity
Constant ends, left off below: GCCTAGCAC … GTCTTGATTCGCTTGACGCTGCTG
Construct (chain): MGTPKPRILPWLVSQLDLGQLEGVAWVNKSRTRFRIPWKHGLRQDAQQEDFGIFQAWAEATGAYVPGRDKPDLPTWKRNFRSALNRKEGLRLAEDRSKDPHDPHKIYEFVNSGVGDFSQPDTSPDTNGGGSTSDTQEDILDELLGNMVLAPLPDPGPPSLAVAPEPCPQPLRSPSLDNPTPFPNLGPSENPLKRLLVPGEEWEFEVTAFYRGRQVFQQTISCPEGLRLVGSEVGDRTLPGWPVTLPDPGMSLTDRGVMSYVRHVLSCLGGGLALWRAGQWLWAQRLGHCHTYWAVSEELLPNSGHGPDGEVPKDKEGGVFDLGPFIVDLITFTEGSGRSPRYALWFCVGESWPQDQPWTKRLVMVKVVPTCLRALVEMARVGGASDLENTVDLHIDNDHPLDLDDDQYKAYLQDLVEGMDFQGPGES
TTAGAACTGAGGATCGATTAGTGCTAG: -0.321 z-score
TTAGGACTCCTTTTCCTTTAGTGCTAG: 3.08 z-score
GACGAACTGAGTCTGGAGACGTGCTAG: -0.44 z-score
GACGTTCTCAGTTTCGAGACGTGCTAG: 2.94 z-score
TTAGGACTGGGGGATCGGTTAGTGCTA: -0.39 z-score
GACGGTATCGAAACTGGGGACGTGCTA: 1.89 z-score
TTAGGACTGGGGTATCTGTTAGTGCTA: -0.731 z-score
GACGCACTGGGGTTTCGGGACGTGCTA: 0.607 z-score
GACGGACTGGGGTTTCGGGATGTGCTA: 0.745 z-score
TTAGGTATCGATTTCGGTTAGTGCTAG: 4.33 z-score
TTGGGTATCGGTCTCGGTTAGTGCTAG: 3.31 z-score
TCAGCTTTCATTTATTTACTGTGCTAG: 1.41 z-score
TCACTTTTCATGCTCTTACTGTGCTAG: 1.94 z-score
TTAGGACTGGACTTTCAGTTAGTGCTA: -0.384 z-score
TTAGGTTTCGGGTATGGGTTAGTGCTA: 4.05 z-score
TTAGGTATCGGTATAGGTTAGTGCTAG: 3.18 z-score

Study 3
Target: ABI1, truncated, D143A, DHFR fusion (Arabidopsis thaliana)
Method: DHFR PCA, deep sequencing
Matrix: yeast
Setting: methotrexate growth selection, single substitutions
With: (+)-ABA 0 µM
Baseline: wild-type fitted maximum
Reading: higher = stronger binding
Measurement: relative binding score
Starting sequence: PYL1, truncated, DHFR fusion (Arabidopsis thaliana); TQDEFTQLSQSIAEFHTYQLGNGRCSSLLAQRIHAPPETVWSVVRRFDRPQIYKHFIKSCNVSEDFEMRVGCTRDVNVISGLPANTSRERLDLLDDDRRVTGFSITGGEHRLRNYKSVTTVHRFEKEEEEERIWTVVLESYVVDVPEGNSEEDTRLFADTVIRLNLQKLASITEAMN; partner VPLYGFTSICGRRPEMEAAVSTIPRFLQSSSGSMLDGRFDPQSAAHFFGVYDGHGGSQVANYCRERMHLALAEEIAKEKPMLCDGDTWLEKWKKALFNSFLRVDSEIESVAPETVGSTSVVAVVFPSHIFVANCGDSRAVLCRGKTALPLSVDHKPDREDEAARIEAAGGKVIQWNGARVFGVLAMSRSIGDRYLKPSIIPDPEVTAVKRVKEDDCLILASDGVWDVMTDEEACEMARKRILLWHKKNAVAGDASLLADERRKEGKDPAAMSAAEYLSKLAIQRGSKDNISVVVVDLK
F56D: 0.57%
E139S: 2.25%
E129D: 43.9%
F66Q: 5.04%
E14S: 2.98%
D3V: 7.43%
V70C: 3.61%
H16Y: 1.29%
Y18S: 3.71%
A158V: 48.4%
K126T: 49%
R90H: 1.88%
V142H: -5.41%

Study 4
Target: CCNE1, cyclin fold, Cln2 fusion (human)
Method: yeast growth competition, sequencing
Matrix: yeast
Setting: weak parent motif
Baseline: not given
Reading: higher = stronger binding
Measurement: normalised enrichment score
Starting sequence: PKN2 docking peptide (human); VSAVQKLDFSDTM
A3I: 1.08
M13G: 0.971
S2R: 0.878
D8E: 0.819
S2G: 0.997
T12I: 0.729
L7F: 0.154
V1T: 0.825
S10L: -0.207
D8K: 0.823
M13E: 1.21
K6P: -0.0593
M13T: 0.857

Excerpt of the above (study 1):
ACCAGGGG: -0.234
CAGACGTA: 0.0278
ACGGGCTC: -0.33
CTGAAGAC: -0.147
